Published values gathered from unrelated publications.
Parts stem from different laboratories: compare values within a part only. Positions count from the first letter of the parent shown.

Set 1 — target: CCNA2, cyclin fold, Cln2 fusion (human); technique: yeast growth competition, sequencing; sample: yeast; setting: weak parent motif; reference: not given; reading: higher = stronger binding
Parent: FZR1 docking peptide (human); QDYERRLLRQIVI
Under “normalised enrichment score”, `R5K L8F` is recorded as 0.67.
For `I13A`, “normalised enrichment score” read 0.644.
For `E4A`, “normalised enrichment score” read 1.94.
Under “normalised enrichment score”, `Y3A` is recorded as 0.922.
`L8F`: “normalised enrichment score” 1.1.
`R5A`: “normalised enrichment score” -0.242.
Under “normalised enrichment score”, `R6A` is recorded as 0.741.
`Q1A`: “normalised enrichment score” 1.58.
Under “normalised enrichment score”, `Q10A` is recorded as 0.169.
Under “normalised enrichment score”, `R5A L7A` is recorded as 0.523.

Set 2 — technique: RNA Bind-n-Seq; form: RNA; sample: in vitro; concentration: 200 nM; setting: whole 134-nt RNA, ends assumed; together with: 150 mM LiCl; reference: input library; reading: higher = stronger binding; library: 7-deaza-guanosine replaces G
Target: Ras GTPase-activating protein-binding protein 1, full length (G3BP1, Homo sapiens, UniProt Q13283)
UniProt Q13283, sequence (whole entry, looked up): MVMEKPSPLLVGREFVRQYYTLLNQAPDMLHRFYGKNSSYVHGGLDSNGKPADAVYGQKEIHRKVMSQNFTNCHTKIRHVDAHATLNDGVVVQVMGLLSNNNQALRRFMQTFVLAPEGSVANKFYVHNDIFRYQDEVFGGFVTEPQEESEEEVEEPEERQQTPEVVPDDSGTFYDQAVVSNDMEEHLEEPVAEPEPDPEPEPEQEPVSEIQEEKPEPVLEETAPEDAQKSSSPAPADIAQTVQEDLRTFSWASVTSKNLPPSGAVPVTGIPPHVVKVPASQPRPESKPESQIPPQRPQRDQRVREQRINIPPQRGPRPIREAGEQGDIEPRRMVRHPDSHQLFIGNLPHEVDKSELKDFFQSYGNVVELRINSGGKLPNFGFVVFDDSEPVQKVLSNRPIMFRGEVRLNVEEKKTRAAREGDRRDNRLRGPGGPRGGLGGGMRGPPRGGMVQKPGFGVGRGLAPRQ
All sequences stand within: GGGAGUUCUACAGUCCGACGAUC … UGGAAUUCUCGGGUGUCAAGG
With `CAAGUCCUGUGCUACACAUCGUAUGUACCGAAUCGGGGUUUGGGUUUGGGUUUGGAAAGUAUUAUGUUACGCCGUUCGGAUCUGCACUUC` the log2 enrichment was -0.392.
`GCAGGAAGUAAAAACAAAUGGAAAUGCUUCGGAUAGUGGCAGGGGUGGGGGUAGCUAAGGAAAGGGUGGGAUGGGAGUGGGUAAAGAGUU` has a log2 enrichment of 0.547.
The log2 enrichment of `UCAAGUCCUGUGCUACACAUCGUAUGUACCGAAUCGGGAAAGGGAAAGGGUGGGAAAGUAUUAUGUUACGCCGUUCGGAUCUGCACUUCC` is reported as -0.564.
For `GCAGGAAGUAAAAACAAAUGGAAAUGCUUCGCAUAGUGGCAGGGGUGGGGGUUGCUAAGGAAAGGGUGGGAUGGGAGUGGGUAAAGAGUU`, the log2 enrichment was 0.366.
`AGUCCUGUGCUACACAUCGUAUGUACCGAAUCGGGAGGGAAAAAGGGAAAAAAAGGGAAAGUAUUAUGUUACGCCGUUCGGAUCUGCACU` has a log2 enrichment of -0.348.
`CUCAAGUCCUGUGCUACACAUCGUAUGUACCGAAUCGGGUGGGAAAGGGUGGGAAAGUAUUAUGUUACGCCGUUCGGAUCUGCACUUCCA` has a log2 enrichment of 0.104.
With `UCAAGUCCUGUGCUACACAUCGUAUGUACCGAAUCGGGAAAGGGUGGGAAAGGGAAAGUAUUAUGUUACGCCGUUCGGAUCUGCACUUCC` the log2 enrichment was -0.377.
With `CACAGACAACACGCACCCACACAGACACAGAGGGAAGGGGUUGGGAUGGGGACAGGGUGCACAGCAGGGCGGGGUAGGACCCCAGCCACU` the log2 enrichment was -0.932.
With `AGUCCUGUGCUACACAUCGUAUGUACCGAAUCGGGAAAAAAAGGGUGGGAAAAAGGGAAAGUAUUAUGUUACGCCGUUCGGAUCUGCACU` the log2 enrichment was -0.701.
`CACAGACAACACGCACCCACACAGACACAGAGGGAAGGGGUUGGGAUGGGGACACGGUGCACAGCAGGGCGGGGUAGGACCCCAGCCCCU` gave a log2 enrichment of 0.3.
With `UUCUGACUCAGAAUGUGCCAAAAAGGCUUUGGAACAACUUAAUGGAUUUGAACUAGCAGGAAGACCAAUGAAAGUUGGUCAUGUUACUGA` the log2 enrichment was -2.68.

Set 3 — target: UBE2E3 UBC core domain (UniProt Q969T4); technique: yeast two-hybrid; sample: yeast; setting: mostly zero background; reference: not given; reading: higher = stronger interaction
UniProt Q969T4, sequence (whole entry, looked up): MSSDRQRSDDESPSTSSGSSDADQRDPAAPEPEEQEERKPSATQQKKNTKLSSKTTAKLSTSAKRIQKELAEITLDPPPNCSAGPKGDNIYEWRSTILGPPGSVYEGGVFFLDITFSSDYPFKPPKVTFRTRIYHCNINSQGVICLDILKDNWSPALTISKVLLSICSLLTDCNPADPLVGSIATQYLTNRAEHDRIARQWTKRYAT
B1: PHF21A RING domain (UniProt Q96BD5); chain SPTSTDGDIHEDFCSVCRKSGQLLMCDTCSRVYHLDCLDPPLKTIPKGMWICPRCQDQMLKKEEAIPW
B2: RC3H2 RING domain (UniProt Q9HBD1); chain QAAQWTEFLSCPICYNEFDENVHKPISLGCSHTVCKTCLNKLHRKACPFDQTAINTDIDVL
B3: ARK2C RING domain (UniProt Q6ZSG1); chain EGEESDTDEKCTICLSMLEDGEDVRRLPCMHLFHQLCVDQWLAMSKKCPICRVDIETQLGAD
B4: ZNF598 RING domain (UniProt Q86UK7); chain AAAPERGGGSCVLCCGDLEATALGRCDHPVCYRCSTKMRVLCEQRYCAVCREELRQVVFGK
B5: RNF25 RING domain (UniProt Q96BH1); chain LTDNNIPHGQCVICLYGFQEKEAFTKTPCYHYFHCHCLARYIQHMEQELKAQGQEQEQERQHATTKQKAVGVQCPVCREPLVYDLASL
B6: UHRF2 RING domain (UniProt Q96PU4); chain CGGDPEKKCHSCSCRVCGGKHEPNMQLLCDECNVAYHIYCLNPPLDKVPEEEYWYCPSCKTDSSEVVKAGER
B7: RNF170 RING domain (UniProt Q96K19); chain TRQQFYTDMYCPICLHQASFPVETNCGHLFCGACIIAYWRYGSWLGAISCPICRQTVTLLLTVF
B8: TRIM69 RING domain (UniProt Q86WT6); chain VIQDITMELHCPLCNDWFRDPLMLSCGHNFCEACIQDFWRLQAKETFCPECKMLCQYNNCTF
Under “lacZ reporter activity”, `B1 (PHF21A RING domain)` is recorded as 0.
`QLRRLQEERTCKVCMDKEVSVVFIPCGHLVVCQECAPSLRKCPICRGIIKGTVRTF (BIRC2 RING domain (UniProt Q13490))`: “lacZ reporter activity” 0.
`VTLSLTLPITCHICLGKVRQPVICINNHVFCSICIDLWLKNNSQCPACRVPITPENPCK (OBI1 RING domain (UniProt Q5W0B1))` — result for “lacZ reporter activity”: 0.
`KTLSRFGIQPCSICLGDAKDPVCLPCDHVHCLRCLRAWFASEQMICPYCLTALPDEFSPA (RNF213 RING domain (UniProt Q63HN8))` — result for “lacZ reporter activity”: 0.
`DDENSDNSNECVVCLSDLRDTLILPCRHLCLCTSCADTLRYQANNCPICRLPFRALLQIR (MGRN1 RING domain (UniProt O60291))` — result for “lacZ reporter activity”: 0.
`B2 (RC3H2 RING domain)`: “lacZ reporter activity” 0.
Under “lacZ reporter activity”, `B3 (ARK2C RING domain)` is recorded as 5510.
For `QLRRLQEERTCKVCMDKEVSIVFIPCGHLVVCKDCAPSLRKCPICRSTIKGTVRTF (BIRC3 RING domain (UniProt Q13489))`, “lacZ reporter activity” read 0.
`FASPPDSNFVCSVCHGVLKRPARLPCSHIFCKKCILRWLARQKTCPCCRKEVKRKKVVH (RNF151 RING domain (UniProt Q2KHN1))`: “lacZ reporter activity” 0.
`B4 (ZNF598 RING domain)`: “lacZ reporter activity” 0.
For `B5 (RNF25 RING domain)`, “lacZ reporter activity” read 5840.
`B6 (UHRF2 RING domain)`: “lacZ reporter activity” 0.
For `RLTMMWEEVTCPICLDPFVEPVSIECGHSFCQECISQVGKGGGSVCPVCRQRFLLKNLRP (TRIM21 RING domain (UniProt P19474))`, “lacZ reporter activity” read 0.
`B7 (RNF170 RING domain)` — result for “lacZ reporter activity”: 0.
`B8 (TRIM69 RING domain)` — result for “lacZ reporter activity”: 0.

Set 4 — technique: RNA Bind-n-Seq; form: RNA; sample: in vitro; concentration: 365 nM; reference: no-protein control; reading: higher = stronger binding
Target: RNA binding protein fox-1 homolog 2, RRM domain, GST-SBP tag (RBFOX2, Homo sapiens, UniProt O43251-10, residues 100-194)
Setting: natural RNA segment, single round, ends assumed
All sequences stand within: GGGAGUUCUACAGUCCGACGAUC … UGGAAUUCUCGGGUGCCAA
Construct (chain): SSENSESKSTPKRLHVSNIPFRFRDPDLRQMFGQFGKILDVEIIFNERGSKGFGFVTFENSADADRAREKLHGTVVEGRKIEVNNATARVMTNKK
Under “RBNS enrichment (R)”, `AAUAGGACUUGUUUUUUGUUUUUGUUUUGUUGCACUGAAGUAUGACAAAUAGUGUUAUUGGAAGGGAUGUGUAAUUUUUCUGUAUAGACAGGAGAAGAAAUAACUAUCUU` is recorded as 2.58.
`UUCGUCACUGAAGAAAUCAUUCCCCUCGGGAAUCAGGAGUGCCUGGAGCACUGUGGGGACGGACUCCGCCUGCUGUUCCCGCGCUGAGCUACAGGACUCCCGAGUGUGAG` — result for “RBNS enrichment (R)”: 0.525.
Under “RBNS enrichment (R)”, `UAUAAUGUUUCAACAAACAGAAGGUAGACAACAGGUUGUUGGUGGACAUGCUUGGUGCUUUUGGUAUGCUGCAAACACAAAGUGGUGGAACAAGGGUCACUGGACCCUUG` is recorded as 1.01.
`AAACUUUACCACAUUUAUAAAUAUGAGGGAUUUUUUCUUUUGUUGGUUUUUAACCCUUUUAGACUAAGCCUCAAAAAUAUUAUCAUACCUGUGUACUUGUACAUUAAAAA` — result for “RBNS enrichment (R)”: 0.606.
`ACAACCGGAAUGAUCUGGCCCCCAGCCUCCAGACCCUCUAAUGCCCUCAGUGGCCACAUCAUGCCCACUCCCACUCCAUCCUGUCCCCAAGGACUCACAUACAGUGCCUG`: “RBNS enrichment (R)” 0.517.
`AAUGGUGGUAAAGAGCAUGUUUUGAAAUGCUGUGGAAACCAUCUAUGCUGACAGUCUUGCAGCAUGGGAACAAAGACAUCAUAUUUUGCUUCAAAUUCUCUUUCAGUAGU` — result for “RBNS enrichment (R)”: 1.49.
For `UUGAAGCUCCUGAAAUUUUGAGCACUGCUCUAACAUUGUAGGAAGUUAGUGACAUUUUGCAAGUCUCUACAAAAGCUCUUGCCACAGAAUUCACUGCUGCCCUGACUCUU`, “RBNS enrichment (R)” read 0.294.
For `UAAAUUACUUUGUGAUUACAAGCAAAUUUUCUAUUUGACAAAGCCCUUGGUGGAGUCCAAAUGAUUUUUCUGUACCAUAUUGUUCUCUUACACAUACGUAUGUUAGGAAA`, “RBNS enrichment (R)” read 0.292.
`UUCUGGAGAGAUCUCACGUGGAUGGUACCGGUGCUCUGAGCACCACAGAUGUGAGCUACAGUUCGUUUCUGAAAGCUACCACAAGCUGGAAACUGGUGAUCAGUGUGGGG` — result for “RBNS enrichment (R)”: 0.299.
For `ACCUACUAAGUAGCAAGAAUGCCUCAGCAAUCCCCAAGCCUUCCAGUGCCUCUGGGGGCUUCCUGAUGGAAAACUACACAAACUGAGUUUUUUAAAUGUUAACUCCACUU`, “RBNS enrichment (R)” read 0.508.
For `GGAUUUUACAGAGUUUUUGAGAAUGGGUGUGAUUACUGACUUGAAUUAAAAAAGAAUUUGGAGUUAGAAAGGAGGGGUUGUCAUCUCCUGGAGCUCAUUGAUUAGAAGAU`, “RBNS enrichment (R)” read 0.785.
For `GAUAAUACAAUGAUUUCAUUAACUUUUCAUUUCUGUAUACCUGUUCAUUUGGAAUUUAAUGCUUGACUUCUUUGUUCAUUUUGGAUCUAAACUUCUCUUUUCUUCCUUCC`, “RBNS enrichment (R)” read 0.398.

Excerpt of the above (set 3):
`B4 (ZNF598 RING domain)`: “lacZ reporter activity” 0.
`DDENSDNSNECVVCLSDLRDTLILPCRHLCLCTSCADTLRYQANNCPICRLPFRALLQIR (MGRN1 RING domain (UniProt O60291))` — result for “lacZ reporter activity”: 0.
`B7 (RNF170 RING domain)` — result for “lacZ reporter activity”: 0.
